Measured values of several laboratories.
Numbered parts are unrelated; each lists some results of a single study. Positions count from the first letter of the parent shown.

Series 1
Target: CCNB2, cyclin fold, Cln2 fusion (human)
Method: yeast growth competition, sequencing
Sample: yeast
Notes: weak parent motif
Baseline: not given
Reading: higher = stronger binding
Starting sequence: MASTL docking peptide (human); PMIAKNLMCELDE
Substitution	normalised enrichment score
E10T	-0.492
C9I	0.18
L7T	-0.357
E10K	0.615
D12C	0.585
C9L	0.95
D12F	0.269
I3Q	0.0919
M2F	0.487
E10W	0.216
N6Q	0.223
K5P	0.0087
K5A	-0.0982
E10L	1.31
N6L	0.0856
M8R	0.0859
L11I	1.01
C9S	0.602
D12H	0.702
N6A	-0.0226
C9N	0.637
N6H	0.26
C9P	0.89
C9M	0.676
I3L	0.439

Series 2
Target: Sal-like protein 4, full length isoform A (SALL4, Homo sapiens, UniProt Q9UJQ4, residues 1-1053)
Chain of UniProt Q9UJQ4 (whole entry, looked up): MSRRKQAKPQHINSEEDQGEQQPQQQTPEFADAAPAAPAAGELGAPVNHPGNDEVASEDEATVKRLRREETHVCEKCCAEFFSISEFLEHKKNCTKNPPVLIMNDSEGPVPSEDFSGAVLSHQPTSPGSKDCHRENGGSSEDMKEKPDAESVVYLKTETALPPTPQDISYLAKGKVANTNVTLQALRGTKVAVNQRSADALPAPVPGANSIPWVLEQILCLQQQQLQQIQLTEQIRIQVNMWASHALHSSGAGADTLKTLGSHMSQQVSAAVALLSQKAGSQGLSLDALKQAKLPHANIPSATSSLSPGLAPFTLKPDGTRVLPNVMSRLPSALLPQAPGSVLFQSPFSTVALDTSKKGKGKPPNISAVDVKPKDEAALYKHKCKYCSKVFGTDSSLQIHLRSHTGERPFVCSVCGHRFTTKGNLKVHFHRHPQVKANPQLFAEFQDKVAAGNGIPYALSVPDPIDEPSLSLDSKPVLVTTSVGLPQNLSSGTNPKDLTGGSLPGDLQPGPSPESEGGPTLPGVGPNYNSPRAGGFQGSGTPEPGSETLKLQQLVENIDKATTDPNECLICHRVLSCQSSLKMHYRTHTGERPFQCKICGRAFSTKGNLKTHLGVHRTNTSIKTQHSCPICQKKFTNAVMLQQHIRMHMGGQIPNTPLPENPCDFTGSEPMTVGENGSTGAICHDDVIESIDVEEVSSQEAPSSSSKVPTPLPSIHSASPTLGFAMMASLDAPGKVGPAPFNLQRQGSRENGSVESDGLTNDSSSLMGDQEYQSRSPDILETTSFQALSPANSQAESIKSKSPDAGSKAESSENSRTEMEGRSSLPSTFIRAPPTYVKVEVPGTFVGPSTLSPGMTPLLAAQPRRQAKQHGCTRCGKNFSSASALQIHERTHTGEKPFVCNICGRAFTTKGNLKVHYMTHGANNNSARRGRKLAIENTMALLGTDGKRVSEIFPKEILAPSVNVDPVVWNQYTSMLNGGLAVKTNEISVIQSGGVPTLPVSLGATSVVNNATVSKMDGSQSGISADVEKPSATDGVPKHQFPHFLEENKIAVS
Method: universal PBM
Molecule type: double-stranded DNA, one strand shown
Sample: in vitro
Concentration: 600 nM
Notes: 8-mer, flanks averaged, mean of replicates
Reading: higher = stronger binding
Oligonucleotide	E-score
ACGGAGGA	-0.124
AGCAGGCT	-0.165
GGCGTTAC	-0.204
ATACTCCG	-0.0148
ATTTGAGG	0.0725
ACAGCATA	0.265
GCAGTGTA	0.0123
CTAAACTC	0.0264
ATGGTTAC	0.205
ACAATCGG	-0.0514
GACCGGGA	-0.322
AGCGCTAG	-0.208
GCATATGA	0.199
AAAAAGCG	0.175
TATGCGAA	0.211
AACGTGCT	-0.103
CCAACCCC	-0.127
GCAAAGGC	-0.111
AAGGGCAG	-0.232
ACCAGACG	-0.137
GGAATCCC	-0.212
CGGGCAAG	-0.237
CTAGAGGC	-0.145
ACCGACTC	-0.113
ACTCTCCT	0.0312

Series 3
Target: Histone acetyltransferase KAT6A, winged helix 2, GST fusion (KAT6A, Homo sapiens, UniProt Q92794, residues 85-181)
Method: protein binding microarray
Molecule type: double-stranded DNA, one strand shown
Sample: in vitro
Concentration: not given
Notes: 8-mer, flanks averaged, mean of 2 arrays, mostly near background
Baseline: not given
Reading: higher = stronger binding
Target sequence (chain): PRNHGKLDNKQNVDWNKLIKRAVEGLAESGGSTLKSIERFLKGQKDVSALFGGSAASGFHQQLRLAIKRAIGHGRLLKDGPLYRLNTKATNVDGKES
Oligonucleotide	E-score
ACAATTTA	0.0776
CGCTTAGC	0.157
AGGAGGAC	-0.171
ACGGAGCG	0.102
GGATCGCC	0.00637
CACTCTCC	-0.00536
CAGCGAAC	0.106
ATACACTA	-0.175
GGGGAGCA	-0.149
ACAGACAT	0.108
AACATTAC	-0.18
ACTGCAGT	-0.0317
ACGATTCA	-0.0275
GGTTGCTA	0.0503
GACTTGCC	-0.0549
AGGAACAG	-0.0546
AAAGGTCC	0.0333
ACTCGACG	0.0732
ACCGTACG	-0.223
ACCGATCA	0.0345
AAGGAAAG	-0.0758
ACTGTGCG	-0.0546
ACTTTTTG	0.0935
AAGATAGA	-0.1
CAAATGAG	-0.0506

Series 4
Target: Interferon regulatory factor 7, full length, phosphomimetic (IRF7, Homo sapiens, UniProt Q92985, residues 1-503, S471D/S472D/S475D/S476D/S477D/S483D/S484D/S487D)
Chain of UniProt Q92985 (whole entry, unmodified, looked up): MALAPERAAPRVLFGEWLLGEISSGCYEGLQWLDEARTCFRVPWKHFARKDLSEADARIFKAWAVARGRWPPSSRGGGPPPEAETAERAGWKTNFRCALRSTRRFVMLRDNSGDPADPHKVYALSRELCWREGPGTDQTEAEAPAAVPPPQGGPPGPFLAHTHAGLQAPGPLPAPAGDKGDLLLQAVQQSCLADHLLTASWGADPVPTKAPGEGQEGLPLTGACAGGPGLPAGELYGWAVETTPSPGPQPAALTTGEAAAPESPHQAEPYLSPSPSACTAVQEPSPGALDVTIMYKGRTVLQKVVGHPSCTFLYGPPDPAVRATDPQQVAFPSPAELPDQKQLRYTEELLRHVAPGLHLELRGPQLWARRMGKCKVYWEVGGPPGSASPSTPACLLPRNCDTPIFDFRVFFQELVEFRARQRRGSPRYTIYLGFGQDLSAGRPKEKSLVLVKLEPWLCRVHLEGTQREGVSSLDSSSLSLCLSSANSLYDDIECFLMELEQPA
Method: protein-binding microarray
Molecule type: double-stranded DNA, one strand shown
Sample: in vitro
Concentration: 2200 nM top
Notes: 60-bp whole probe
Together with: salmon DNA 0.4 mg/ml
Baseline: random background probes
Reading: higher = stronger binding
Shared flanks, not repeated: GCCTAGCAC … GTCTTGATTCGCTTGACGCTGCTG
Oligonucleotide	fitted relative affinity
GACGATATCATTCTCGAGACGTGCTAG	0.512 z-score
TACGGTATCGGTATCGGGACGTGCTAG	0.498 z-score
TTAGATTTTAGTTCCGATTAGTGCTAG	1.06 z-score
TCCATTTTCTGAATGCCTTGGTGCTAG	4.32 z-score
TTAGATTTCAGTCTCGATTGGTGCTAG	1.29 z-score
TTAGGGCTGGGTTTCGGTTAGTGCTAG	3.4 z-score
GACGGTCTCCGTCTCCTGACGTGCTAG	0.144 z-score
TAGTTTTACTTTCTATCTCTGTGCTAG	6.23 z-score
TTAGGTCTAGGTCTCGGTTAGTGCTAG	0.257 z-score
TCAACTTTAGGTTCCCAACTGTGCTAG	1.42 z-score
TTCTTTATGCACTCTCTACATGTGCTA	1.24 z-score
TCACACACCATTCTCGGACTGTGCTAG	1.66 z-score
GGCGGTCTCCTACTGCTGACGTGCTAG	-0.227 z-score
GACGGTTTCCTTATCCTGAAGTGCTAG	2.69 z-score
TCTTCCTTTACTTTCTTTTTGTGCTAG	6.18 z-score
GACGAACTGTGGTTTCGAGACGTGCTA	1.93 z-score
GATGATCTCAGTCTCGAGACGTGCTAG	0.442 z-score
TCTGTTTTTGCTTTCCTTTAGTGCTAG	5.92 z-score
GACGGTCTCGGTCTCGAGACGTGCTAG	-0.363 z-score
